Experimental data pooled from the literature.
Compare with care: the assays were run in different laboratories. ± gives the spread as reported.

SMILES	tested on	test	test system	setting	how to read	endpoint	value
CCCOc1ccc([C@H]2CNC(=O)N2c2ccc3[nH]cnc3c2)cc1			human, plasma	oral, 300 mg, multiple doses, twice daily, fasted		Cmax	2060 ng/mL
O=C1N=C(N2CCOCC2)CN1c1ccc(Cl)cc1			beagle dog, both sexes, plasma	oral, 30 mg/kg, tablets, fasted, day 5		Cmax	14900 ng/mL
COc1cccc(CN)c1O			male C57BL/6 mouse, heart	intraperitoneal, 200 mg/kg, single dose		Cmax	600000 ng/g
Cc1cc(Nc2cc3ncccc3c(N[C@@H]3C[C@H]4CC[C@@H](C3)N4CCC#N)n2)n[nH]1			beagle dog, male, plasma	oral, 100 mg/kg/day, week 28 day 197, 39-week repeat dose	mean	Cmax	304 ng/mL
Nc1ccc(-c2nc([C@H]3CCc4cc(-c5cc(Cl)ccc5-n5cnnn5)cc(=O)n43)c(F)[nH]2)c(F)n1			human, plasma	oral, 1 mg, single dose, fasted		Cmax	6.77 ng/mL
CC1=C2C[C@H]3[C@@H](CC[C@@H]4C[C@H](NS(C)(=O)=O)CC[C@@]43C)[C@@H]2CC[C@@]2(C1)O[C@@H]1C[C@H](C)CN[C@H]1[C@H]2C			patients, plasma	oral, 130 mg single, day -7, cycle 1		Cmax	59.9 ng/mL
CS(=O)(=O)Nc1ccc(C(=O)O[C@@H](Cc2c(Cl)c[n+]([O-])cc2Cl)c2ccc(OC(F)F)c(OCC3CC3)c2)cc1OCC1CC1			human, plasma	inhaled, 1200 µg once daily, day 1, single-dose dry powder inhaler		Cmax	0.628 ng/mL
Cc1nc2cccc(OCC(C)(C)C(=O)NC(C)C)c2c(N)c1C(=O)O			female Sprague-Dawley rat, plasma	dietary, 30 mg/kg/day, day 7		Cmax	7.47 ng/mL
Clc1ccc2[nH]c(-c3ccccc3)cc2c1	RAW264.7	NO release, inhibitor, Griess		50 µM, 20 h, LPS-stimulated		inhibition	49.3%
O=c1[nH]c(=O)c(Cc2cccc(C(F)(F)F)c2)c([C@H]2CC[C@H](c3ccccc3)CC2)[nH]1			human, plasma	oral, 900 mg once daily, day 7, geometric mean		Cmax	740 ng/mL
COc1cccc(-c2n[nH]c(SCc3ccccn3)n2)c1OC			Sprague-Dawley rat, both sexes, plasma	oral, diet, 10 mg/kg/day, day 7		Cmax	276 ng/mL
CC(C)[C@H](N)C(=O)NCCCS(=O)(=O)O			human, both sexes, plasma	oral, 300 mg capsule		Cmax	8150 ± 3610 ng/mL
CCCC[C@H](NC(C)=O)C(=O)N[C@H]1CCC(=O)NC[C@@H](C(=O)N[C@@H](Cc2c[nH]c3ccccc23)C(N)=O)NC(=O)[C@H](CCCNC(=N)N)NC(=O)[C@@H](Cc2ccccc2)NC(=O)[C@H](Cc2c[nH]cn2)NC1=O			beagle dog, female, plasma	subcutaneous, 1.5 mg/kg daily, day 1		Cmax	106 ng/mL
O=C(CCCCCCC(=O)Nc1ccccc1)NO			patients, serum	oral, 1000 mg, cycle 1, together with: flavopiridol		Cmax	12700 nM
CN(C(=O)c1ccn2ncc(-c3ccc(C(N)=O)cc3)c2c1)c1ccc(C#N)cn1			female C57BL/6 mouse, plasma	oral, 10 mg/kg		Cmax	659 nM
CNCc1ccc(-c2[nH]c3cc(F)cc4c3c2CCNC4=O)cc1			human, fed high-fat meal, plasma	oral, 600 mg, single dose, median		Cmax	746 ng/mL
Cn1c(C(F)(F)F)cc(=O)n(-c2cc(Oc3cccnc3OCC(=O)O)c(Cl)cc2F)c1=O			beagle dog, male, plasma	oral capsule, 1000 mg/kg/day epyrifenacil, week 13, 90-day study		Cmax	6760 ng/mL
CO[C@H]1C[C@@H]2CC[C@@H](C)[C@@](O)(O2)C(=O)C(=O)N2CCCC[C@H]2C(=O)O[C@H]([C@H](C)C[C@@H]2CC[C@@H](O)[C@H](OC)C2)CC(=O)[C@H](C)/C=C(\C)[C@@H](O)[C@@H](OC)C(=O)[C@H](C)C[C@H](C)/C=C/C=C/C=C/1C			human, whole blood	oral, 35 mg, without grapefruit juice		Cmax	68.1 ng/mL
O=Cc1c(-c2ccccc2)[nH]c2ccccc12	RAW264.7	sulforhodamine B		50 µM, 20 h	baseline: vehicle	viability	110 ± 6.7%
C#C[C@]1(CO)O[C@@H](n2cnc3c(N)nc(F)nc32)C[C@@H]1O			human, plasma	oral, 5 mg, single dose, fasted		Cmax	147 nM

A few entries again:
SMILES	tested on	test	test system	setting	how to read	endpoint	value
O=C1N=C(N2CCOCC2)CN1c1ccc(Cl)cc1			beagle dog, both sexes, plasma	oral, 30 mg/kg, tablets, fasted, day 5		Cmax	14900 ng/mL
CC1=C2C[C@H]3[C@@H](CC[C@@H]4C[C@H](NS(C)(=O)=O)CC[C@@]43C)[C@@H]2CC[C@@]2(C1)O[C@@H]1C[C@H](C)CN[C@H]1[C@H]2C			patients, plasma	oral, 130 mg single, day -7, cycle 1		Cmax	59.9 ng/mL
